Assay results pooled from the literature.
Numbers after ± are the reported error.

SMILES	assay	system	conditions	Cmax
C[C@@H]1CCO[C@H]2Cn3cc(C(=O)NCc4ccc(F)cc4F)c(=O)c(O)c3C(=O)N12	–	human, age ≥1 months, body weight 3 to <6 kg, plasma	oral, 5 mg, dispersible tablet, steady state	3220 ng/mL
CC(C)[C@H](N)C(=O)NCCCS(=O)(=O)O	–	human, plasma	oral, 340 mg once daily days 8-14, day 14, fasted, capsule	10400 ng/mL
COc1cc(N2CCC(N3CCN(C)CC3)CC2)ccc1Nc1ncnc(Nc2ccccc2S(=O)(=O)C(C)C)n1	–	human, plasma	oral, 75 mg, day 1	137 ng/mL
Cl.[2H]C([2H])([2H])CC(=O)c1cnc(NC(=O)C2CC2)cc1Nc1cccc(-c2ncn(C([2H])([2H])[2H])n2)c1OC	geometric mean	human	oral, 40 mg twice daily, day 7, fed, liquid, multiple dose	433 ng/mL
CCOc1c([C@H](C)n2nc(C)c3c(N)ncnc32)cc(Cl)c(F)c1[C@@H]1CNC(=O)C1	–	human patients	oral, 15 mg once daily, cycle 1 day 15, monotherapy	1310 ± 290 nM
CO[C@H]1C[C@@H]2CC[C@@H](C)[C@@](O)(O2)C(=O)C(=O)N2CCCC[C@H]2C(=O)O[C@H]([C@H](C)C[C@@H]2CC[C@@H](OC(=O)NCCOCCOCCOCCOCCOCCOCCOCCOCCC(=O)N3CCc4cc(Cn5nc(-c6ccc7oc(N)nc7c6)c6c(N)ncnc65)ccc4C3)[C@H](OC)C2)C[C@@H](O)[C@H](C)/C=C(\C)[C@@H](O)[C@@H](OC)C(=O)[C@H](C)C[C@H](C)/C=C/C=C/C=C/1C	–	human, plasma	intravenous, 6 mg, cycle 1 day 1, arithmetic mean	180 ng/mL
O=C(O)CCC(=O)O.[2H]C([2H])([2H])Oc1cc(C)c2[nH]ccc2c1CN1CC[C@@H](C2CC2)C[C@H]1c1ccc(C(=O)O)cc1	–	human, plasma	300 mg once daily, day 1, multiple ascending dose, geometric mean	4390 ng/mL
O=C(COc1ccc(Cl)cc1)NC12CC(c3nnc([C@H]4C[C@@H](OC(F)(F)F)C4)o3)(C1)C2	–	healthy human volunteers fasted, plasma	oral, 45 mg single dose, geometric mean	514 nM
COc1ncc(-c2nc3c(n2C(C)C)[C@H](c2ccc(Cl)cc2)N(c2cc(Cl)cn(C)c2=O)C3=O)c(OC)n1	LC-MS/MS	human, plasma	oral, 50 mg, cycle 2 day 1, high-dose arm	500 ng/mL
C=CC(=O)N(C)CCOc1c(N)ncnc1-c1cc(F)cc(NC(=O)c2ccc(C3CC3)cc2F)c1C	–	human, whole blood	oral, 200 mg single dose	245 ng/mL
C[C@@H](Nc1cc(F)cc(F)c1)c1cc(C(=O)N(C)C)cc2c(=O)cc(N3CCOCC3)oc12	–	human	oral, 60 mg twice daily, 5:2 schedule, steady state, geometric LSM, with: abiraterone 1000 mg	364 ng/mL
CNC(=O)c1ccc(-c2cnc3ncc(Cc4ccc5ncccc5c4)n3n2)cc1F	–	human severe hepatic impairment	oral, 200 mg single dose, covariate-adjusted geometric mean	1910 ng/mL

Some of these lines once more:
SMILES	assay	system	conditions	Cmax
O=C(O)CCC(=O)O.[2H]C([2H])([2H])Oc1cc(C)c2[nH]ccc2c1CN1CC[C@@H](C2CC2)C[C@H]1c1ccc(C(=O)O)cc1	–	human, plasma	300 mg once daily, day 1, multiple ascending dose, geometric mean	4390 ng/mL
O=C(COc1ccc(Cl)cc1)NC12CC(c3nnc([C@H]4C[C@@H](OC(F)(F)F)C4)o3)(C1)C2	–	healthy human volunteers fasted, plasma	oral, 45 mg single dose, geometric mean	514 nM
